Values quoted from earlier work, collected from citations in different studies.
Protocols differ between the studies behind these lines. Numbers after ± are the reported error.

SMILES | test | system | conditions | scale | quantity | value
Ic1cc2nc(c1)CNCCNCCNC2.[Cu+2] | cyclic voltammetry | DMF | scan rate 100 mV/s |  | peak separation ΔE | 96 mV
CN1CCN(c2ccc3[nH]c(-c4ccc5[nH]c(-c6ccc(OCCCCNC(=O)c7ccc8c(c7)C7(OC8=O)c8ccc(N(C)C)cc8[Si](C)(C)c8cc(N(C)C)ccc87)cc6)nc5c4)nc3c2)CC1 |  | PBS |  |  | fluorescence quantum yield | 0.003 ± 0.002
COc1ccc(Nc2nc(Nc3ccc(OCC[18F])cc3)ncc2Br)cc1 |  | S180 tumour-bearing mice | intravenous, 60 min | baseline: tumour over bone | tumour to tissue ratio | 0.78
Clc1cc2nc(c1)CNCCNCCNC2.[Cu+2] | cyclic voltammetry | DMF | scan rate 100 mV/s |  | peak separation ΔE | 101 mV
CN(C)CCN1CCN(CCCN2c3ccccc3Sc3ccc(C(F)(F)F)cc32)CC1 |  |  |  |  | logP | 4.84
NC[C@H](N)C(=O)O |  |  |  |  | pKa | 9.57
Cc1ccc2c(c1)nc(CCN1C(=O)c3cccc4cccc(c34)C1=O)n2-c1ccncc1 |  | Sprague-Dawley rat | oral, 10 mg/kg |  | MRT(0-t) | 1.5 h
Cc1cc(-c2ccc(C#N)cc2)cc(C)c1Oc1ccnc(Nc2ccc(C#N)cc2)n1 |  | human liver microsomes |  |  | half-life | 0.243 h
CN1CCN(c2ccc3[nH]c(-c4ccc5[nH]c(-c6ccc(OCCCCNC(=O)c7ccc8c(c7)C7(OC8=O)c8ccc(N(C)C)cc8C(C)(C)c8cc(N(C)C)ccc87)cc6)nc5c4)nc3c2)CC1 |  | PBS with 0.1% SDS |  |  | fluorescence quantum yield | 0.614 ± 0.002
Oc1cccc(-c2cccc(O)n2)n1.[Cl-].[Cl-].[Ru+2].c1cnc2c(c1)ccc1cccnc12.c1cnc2c(c1)ccc1cccnc12 |  | CD3OD | acidic form |  | singlet oxygen quantum yield | 0.048
FC(F)(F)c1cc2nc(c1)CNCCNCCNC2.[Cu+2] | cyclic voltammetry | DMF | scan rate 100 mV/s | baseline: Fc/Fc+ | half-wave potential | -914 mV
O=C(O)CN1CCNCCNCCN(CC(=O)O)CC1 |  | 0.1 M KCl |  |  | log KH1 | 11.4
CC[C@H](C)[C@H](NC(=O)[C@H](Cc1ccc(O)cc1)NC(=O)[C@@H](NC(=O)[C@H](CCCNC(=N)N)NC(=O)[C@@H](N)CC(=O)O)C(C)C)C(=O)N[C@@H](Cc1c[nH]cn1)C(=O)N1CCC[C@H]1C(=O)O | ELISA | patients with advanced cancer, plasma | dose not given |  | Tmax | ~1 h
[Cu+2].c1cc2nc(c1)CNCCNCCNC2 | cyclic voltammetry | DMF | scan rate 100 mV/s | baseline: Fc/Fc+ | half-wave potential | -948 mV
COc1ccc2c(c1)CN(C(=O)CCN1CCC(Cc3ccccc3)CC1)CCS2 |  | dog sterile pericarditis AF model | dose not given |  | plasma concentration | 750 ng/mL
O=C(O)CCCCC1(N(CC(=O)O)CC(=O)O)CN(CC(=O)O)CCN(CC(=O)O)C1 | pH-potentiometry, refers to: logK5H | 0.15 M NaCl | 25 °C |  | protonation constant (log) | 2.6
COc1ccc(CNc2nc([C@H]3CC[C@H](C(=O)O)CC3)nc3sc4ccccc4c23)cc1Cl |  | mouse |  |  | oral bioavailability | < 5%
CNc1nc(N)nc2c1ncn2[C@@H]1O[C@H](CO)[C@@H](O)[C@@]1(C)F |  | plasma |  |  | plasma half-life | ~19 h
CC1(N(CC(=O)O)CC(=O)O)CN(CC(=O)O)CCN(CC(=O)O)C1 | pH-potentiometry, refers to: logK2H | 0.15 M NaCl | 25 °C |  | protonation constant (log) | 6.5
COc1cc2nc(c1)CNCCNCCNC2.[Cu+2] | cyclic voltammetry | DMF | scan rate 100 mV/s |  | peak separation ΔE | 165 mV

SMILES | test | system | conditions | scale | quantity | value
NCCN1CCN(CC(=O)O)Cc2cccc(n2)CN(CC(=O)O)CC1 |  |  | 0.15 M NaCl |  | sum of log KiH | 29.1
CCn1c(=O)c(-c2cc(NC(=O)Nc3ccccc3)c(F)cc2Br)cc2cnc(N)cc21 |  | patients | 150 mg once daily, at least 15 days, geometric mean |  | trough concentration | 546 ng/mL
C/C(N)=N/C(=N\S(=O)(=O)c1ccc(C(F)(F)F)cc1)N1C[C@H](c2ccccc2)C(c2ccc(Cl)cc2)=N1 |  | wild-type mice, bleomycin ear model, serum | 10 mg/kg |  | Cmax | 5 to 10 µM
O=C(Nc1ccc(OC(F)(F)F)cc1)NC1CCN(C(=O)C2CC2)CC1 | experimental |  |  |  | logP | 3.28
O=C1NC(=O)/C(=C/c2ccc3ncnc(N4CCC(F)CC4)c3n2)S1 |  | mouse |  |  | half-life | 3 h
O=C(O)CN1CCN(CC(=O)O)CCN(CC(=O)O)CC1 | protonation constant |  | 0.1 M Me4NCl |  | log KH3 | 3.22
NCc1ccc(Cl)cc1 |  |  | amine, free unbound form |  | pKa | 9.1
CCC(C)OC(=O)c1ccc(O)cc1 (stereo not drawn) |  |  | pH 7.4 |  | logD | 2.9
c1ccc2cc3c(ccc4ccccc43)cc2c1 |  |  | experimental mean |  | log Kow | 5.6
O=C(O)c1cc2cc(O)ccc2n1Cc1ccc(Cl)c(C(F)(F)F)c1 |  |  |  |  | pKa | 3.7
COc1cc(-c2nc3ccccc3s2)cc(CN2CCNCCN(Cc3cc(-c4nc5ccccc5s4)cc(OC)c3O)CC2)c1O |  |  | 68Ga(III) complex |  | logD | 1.24
CN1CCN(c2ccc3[nH]c(-c4ccc5[nH]c(-c6ccc(OCCCCNC(=O)c7ccc8c(c7)C(=O)OC87c8ccc(N(C)C)cc8[Si](C)(C)c8cc(N(C)C)ccc87)cc6)nc5c4)nc3c2)CC1 |  | PBS |  |  | fluorescence quantum yield | 0.007 ± 0.001
CC(C)COC(=O)c1ccc(O)cc1 |  |  | pH 7.4 |  | logD | 2.86
O=C(N1CCC(C(c2ccc3c(c2)OCO3)c2ccc3c(c2)OCO3)CC1)n1cncn1 [carbon-11 labelled] |  |  |  |  | logD | 3.32
CN1CCN(c2ccc3[nH]c(-c4ccc5[nH]c(-c6ccc(OCCCCNC(=O)c7ccc8c(c7)C(=O)OC87c8ccc(N(C)C)cc8C(C)(C)c8cc(N(C)C)ccc87)cc6)nc5c4)nc3c2)CC1 |  | PBS with 0.1% SDS |  |  | fluorescence quantum yield | 0.576 ± 0.004
O=C(Oc1ccccc1)c1ccc(O)cc1 |  |  | pH 7.4 |  | logD | 3.26
COC1=CC(c2ccc[nH]2)=NC1=CNC1CCCCCC1.Cl | metabolic stability | mouse liver microsomes |  |  | half-life | 0.0867 h
CC(C)OC(=O)c1ccc(O)cc1 | octanol-water |  |  |  | logP | 2.81
Cc1ncsc1-c1ccc(CNC(=O)[C@@H]2C[C@@H](O)CN2C(=O)[C@@H](NC(=O)COCCOCCOCCNC(=O)C[C@@H]2N=C(c3ccc(Cl)cc3)c3c(sc(C)c3C)-n3c(C)nnc32)C(C)(C)C)cc1 |  | mouse | subcutaneous, 5 mg/kg |  | bioavailability | 83%

Some of these lines once more:
SMILES | test | system | conditions | scale | quantity | value
Cc1ccc2c(c1)nc(CCN1C(=O)c3cccc4cccc(c34)C1=O)n2-c1ccncc1 |  | Sprague-Dawley rat | oral, 10 mg/kg |  | MRT(0-t) | 1.5 h
Cc1cc(-c2ccc(C#N)cc2)cc(C)c1Oc1ccnc(Nc2ccc(C#N)cc2)n1 |  | human liver microsomes |  |  | half-life | 0.243 h
CN1CCN(c2ccc3[nH]c(-c4ccc5[nH]c(-c6ccc(OCCCCNC(=O)c7ccc8c(c7)C7(OC8=O)c8ccc(N(C)C)cc8C(C)(C)c8cc(N(C)C)ccc87)cc6)nc5c4)nc3c2)CC1 |  | PBS with 0.1% SDS |  |  | fluorescence quantum yield | 0.614 ± 0.002
Oc1cccc(-c2cccc(O)n2)n1.[Cl-].[Cl-].[Ru+2].c1cnc2c(c1)ccc1cccnc12.c1cnc2c(c1)ccc1cccnc12 |  | CD3OD | acidic form |  | singlet oxygen quantum yield | 0.048
FC(F)(F)c1cc2nc(c1)CNCCNCCNC2.[Cu+2] | cyclic voltammetry | DMF | scan rate 100 mV/s | baseline: Fc/Fc+ | half-wave potential | -914 mV
